Results of several laboratories.
Every numbered part comes from another study and shows a few of its results, in no order. Values joined by “and” are separate records of one study, mostly repeats; a detail may differ.
Sequence of UniProt P19784 (whole entry, looked up): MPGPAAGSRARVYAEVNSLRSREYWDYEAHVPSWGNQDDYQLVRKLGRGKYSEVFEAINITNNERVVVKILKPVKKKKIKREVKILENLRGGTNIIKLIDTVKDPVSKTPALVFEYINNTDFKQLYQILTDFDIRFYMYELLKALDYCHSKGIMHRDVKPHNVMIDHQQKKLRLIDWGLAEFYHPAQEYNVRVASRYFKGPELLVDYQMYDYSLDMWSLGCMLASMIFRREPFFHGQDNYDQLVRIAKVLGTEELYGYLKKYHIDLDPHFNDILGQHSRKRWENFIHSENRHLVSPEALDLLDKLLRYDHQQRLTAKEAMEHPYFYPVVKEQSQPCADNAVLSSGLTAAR
Sequence of UniProt Q9Y2U5 (whole entry, looked up): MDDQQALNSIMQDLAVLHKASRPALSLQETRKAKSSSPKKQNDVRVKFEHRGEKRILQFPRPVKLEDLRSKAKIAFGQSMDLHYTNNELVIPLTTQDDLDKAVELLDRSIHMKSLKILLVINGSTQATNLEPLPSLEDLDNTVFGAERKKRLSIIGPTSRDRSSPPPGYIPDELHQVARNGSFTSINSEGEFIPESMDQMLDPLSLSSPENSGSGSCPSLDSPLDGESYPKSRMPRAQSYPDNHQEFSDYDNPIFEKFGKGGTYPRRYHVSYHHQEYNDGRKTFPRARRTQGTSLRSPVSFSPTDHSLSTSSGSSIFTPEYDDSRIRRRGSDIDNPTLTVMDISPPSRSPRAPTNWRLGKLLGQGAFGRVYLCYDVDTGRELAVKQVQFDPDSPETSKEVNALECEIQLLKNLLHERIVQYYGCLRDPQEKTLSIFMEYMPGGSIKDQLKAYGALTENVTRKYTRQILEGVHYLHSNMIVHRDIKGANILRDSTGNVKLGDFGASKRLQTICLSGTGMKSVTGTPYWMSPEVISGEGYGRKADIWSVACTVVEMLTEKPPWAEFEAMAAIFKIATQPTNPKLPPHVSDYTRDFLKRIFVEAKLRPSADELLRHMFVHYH
Sequence of UniProt Q09013 (whole entry, looked up): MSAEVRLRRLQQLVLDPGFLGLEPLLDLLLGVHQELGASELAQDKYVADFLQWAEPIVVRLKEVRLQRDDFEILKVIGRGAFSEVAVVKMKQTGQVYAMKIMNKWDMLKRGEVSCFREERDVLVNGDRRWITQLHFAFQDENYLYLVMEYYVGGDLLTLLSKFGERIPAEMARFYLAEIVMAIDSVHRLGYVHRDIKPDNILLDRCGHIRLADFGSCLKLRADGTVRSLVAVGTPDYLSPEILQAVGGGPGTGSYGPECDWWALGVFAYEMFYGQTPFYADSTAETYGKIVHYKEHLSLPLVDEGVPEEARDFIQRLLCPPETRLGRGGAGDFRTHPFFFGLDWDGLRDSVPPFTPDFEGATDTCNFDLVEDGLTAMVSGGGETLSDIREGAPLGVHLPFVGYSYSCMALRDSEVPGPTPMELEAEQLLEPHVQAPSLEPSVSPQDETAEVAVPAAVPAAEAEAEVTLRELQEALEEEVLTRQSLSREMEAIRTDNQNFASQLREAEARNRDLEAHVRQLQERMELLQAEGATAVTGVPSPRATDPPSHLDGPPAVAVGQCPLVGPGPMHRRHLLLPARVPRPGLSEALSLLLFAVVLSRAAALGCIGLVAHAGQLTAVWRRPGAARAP
Sequence of UniProt Q14289 (whole entry, looked up): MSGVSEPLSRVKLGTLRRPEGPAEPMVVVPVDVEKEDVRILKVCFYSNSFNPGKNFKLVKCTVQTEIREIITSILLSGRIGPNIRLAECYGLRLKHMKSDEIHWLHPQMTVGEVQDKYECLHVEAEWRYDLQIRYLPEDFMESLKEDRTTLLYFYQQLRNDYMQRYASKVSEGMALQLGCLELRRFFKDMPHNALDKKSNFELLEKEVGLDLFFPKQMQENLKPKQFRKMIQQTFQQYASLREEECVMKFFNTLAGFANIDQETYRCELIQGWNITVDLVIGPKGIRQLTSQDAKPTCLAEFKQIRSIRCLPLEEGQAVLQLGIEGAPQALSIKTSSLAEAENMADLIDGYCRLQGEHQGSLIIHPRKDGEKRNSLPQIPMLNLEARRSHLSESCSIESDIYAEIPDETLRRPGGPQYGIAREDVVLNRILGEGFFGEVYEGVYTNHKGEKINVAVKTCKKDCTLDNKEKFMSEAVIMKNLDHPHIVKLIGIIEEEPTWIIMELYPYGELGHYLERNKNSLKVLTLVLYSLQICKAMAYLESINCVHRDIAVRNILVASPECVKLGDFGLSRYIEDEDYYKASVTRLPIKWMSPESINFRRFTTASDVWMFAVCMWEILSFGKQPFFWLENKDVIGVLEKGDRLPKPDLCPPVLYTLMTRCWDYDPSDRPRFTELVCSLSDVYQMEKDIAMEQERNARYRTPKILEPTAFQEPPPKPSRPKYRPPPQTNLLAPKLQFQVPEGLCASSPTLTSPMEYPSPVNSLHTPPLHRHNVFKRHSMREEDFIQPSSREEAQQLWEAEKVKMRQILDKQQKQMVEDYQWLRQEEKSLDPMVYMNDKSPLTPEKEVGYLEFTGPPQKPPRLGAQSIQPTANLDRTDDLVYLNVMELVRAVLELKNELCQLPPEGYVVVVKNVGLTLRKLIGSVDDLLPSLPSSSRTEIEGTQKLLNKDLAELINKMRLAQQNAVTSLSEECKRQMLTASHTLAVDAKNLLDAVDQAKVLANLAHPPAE
Sequence of UniProt Q9NR20 (whole entry, looked up): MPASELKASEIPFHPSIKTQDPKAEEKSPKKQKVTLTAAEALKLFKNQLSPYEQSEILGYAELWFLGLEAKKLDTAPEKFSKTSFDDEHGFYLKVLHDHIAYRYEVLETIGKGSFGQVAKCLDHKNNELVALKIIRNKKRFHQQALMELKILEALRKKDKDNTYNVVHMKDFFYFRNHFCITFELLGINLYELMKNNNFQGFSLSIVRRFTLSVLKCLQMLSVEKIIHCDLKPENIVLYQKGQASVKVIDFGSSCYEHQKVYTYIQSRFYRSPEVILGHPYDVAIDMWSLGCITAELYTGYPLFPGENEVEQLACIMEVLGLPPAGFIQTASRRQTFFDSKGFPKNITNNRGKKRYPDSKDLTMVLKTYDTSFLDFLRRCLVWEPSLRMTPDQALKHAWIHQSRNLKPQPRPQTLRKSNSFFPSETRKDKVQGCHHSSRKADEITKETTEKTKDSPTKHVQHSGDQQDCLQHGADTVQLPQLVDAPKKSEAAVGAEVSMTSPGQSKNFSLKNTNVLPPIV
Sequence of UniProt O14965 (whole entry, looked up): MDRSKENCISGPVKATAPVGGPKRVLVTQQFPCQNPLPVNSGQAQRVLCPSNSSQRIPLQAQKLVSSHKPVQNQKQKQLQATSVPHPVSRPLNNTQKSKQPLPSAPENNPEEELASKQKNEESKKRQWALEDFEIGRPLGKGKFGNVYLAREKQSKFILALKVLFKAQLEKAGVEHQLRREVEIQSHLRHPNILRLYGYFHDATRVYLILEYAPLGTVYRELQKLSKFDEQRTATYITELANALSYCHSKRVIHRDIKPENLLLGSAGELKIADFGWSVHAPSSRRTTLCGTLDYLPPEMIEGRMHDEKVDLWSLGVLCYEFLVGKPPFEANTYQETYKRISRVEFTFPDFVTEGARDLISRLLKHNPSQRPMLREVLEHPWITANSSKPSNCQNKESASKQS

Study 1
Host: human
Matrix: microsomes or S9
Tested at: 2 µM
Time: 0.5 h
| Compound | remaining compound |
| --- | --- |
| CC(c1ncc(-c2ccc(O)cc2)s1)C(O)(Cn1cncn1)c1ccc(F)cc1F (stereo not shown) | 72.8% |
| COc1ccc(C2C(C(=O)N3CCN(c4cc(Cl)ccc4C)CC3)CCC(=O)N2c2cc(OC)c(OC)c(OC)c2)cc1 (stereo not shown) | 32.8% |
| COc1cccc2c1OC1(CCN(Cc3ccccc3)CC1)N1N=C(c3ccc(C)o3)CC21 (stereo not shown) | 21% |
| Cc1cc(CN2CCN(Cc3cc(C)c(O)c(C)c3)CC2)cc(C)c1O | 65.5% |
| COc1c(-c2coc3cc4c(cc3c2=O)CC(OC(C)=O)C(C)(C)O4)ccc2c1C=CC(C)(C)O2 (stereo not shown) | 27.7% |
| CCn1cnnc1-c1nn(C)c2c1CN(C(=O)c1ccc(Cc3c(C)n[nH]c3C)o1)CC2 | 48.2% |
| Cc1c(C(=O)Nc2ccc3c(c2)NC(=O)C(C)O3)oc2ccc(F)cc12 (stereo not shown) | < 1% |
| Cc1ccc(Nc2cc(C)n3c(=O)[nH]nc3n2)cc1F | 62.4% |
| Fc1ccc(-c2cc3c(cn2)sc2ccccc23)cc1 | 67.4% |
| O=c1ccc2cnc(N[C@H]3CC[C@H](O)CC3)nc2n1C1CCCCC1 | 44.8% |
| CNc1nc(CNc2nc(COC)nc3scc(-c4ccccc4)c23)cs1 | 3.9% |
| CCOc1cc(-c2ccccc2)nn1Cc1ccc2cccnc2c1 | 20.2% |
| CCOc1ccc(OCC)c(NC(=O)c2cc(S(=O)(=O)N3CCCCC3)c[nH]2)c1 | 22.1% |

Study 2
Organism: Sarcocystis neurona
Read-out: parasite growth
Tested at: 10 µM
Reference: untreated
| SMILES | log2 fold change |
| --- | --- |
| COc1ccc(CC(C)NCC(O)c2ccc(O)c(NC=O)c2)cc1.COc1ccc(CC(C)NCC(O)c2ccc(O)c(NC=O)c2)cc1.O.O.O=C(O)/C=C/C(=O)O (stereo not shown) | 0.32 |
| CCN1CC(CCN2CCOCC2)C(c2ccccc2)(c2ccccc2)C1=O.Cl (stereo not shown) | 0.33 |
| COc1ccc2[n-]c([S+]([O-])Cc3ncc(C)c(OC)c3C)nc2c1.COc1ccc2[n-]c([S+]([O-])Cc3ncc(C)c(OC)c3C)nc2c1.[Mg+2] (stereo not shown) | -0.49 |
| O=c1ncc(F)c[nH]1 | -0.38 |
| OC[C@H]1O[C@@H](n2cnc3c(NC4CCCC4)nc(Cl)nc32)[C@H](O)[C@@H]1O | 0.3 |
| CC(=O)CCCCn1cnc2c1c(=O)n(C)c(=O)n2C | 0.26 |
| Nc1ccc2cn[nH]c2c1 | 0.32 |
| O=C1c2c(O)ccc(O)c2C(=O)c2c(NCCNCCO)ccc(NCCNCCO)c21 | -1.43 |
| COC(=O)C1=C(C)NC(C)=C(C(=O)O[C@@H]2CCCN(Cc3ccccc3)C2)[C@@H]1c1cccc([N+](=O)[O-])c1.Cl (racemic) | -0.2 |
| CN1C(=O)CC[C@H]1c1cccnc1 | 0.3 |
| CNCCC(Oc1ccc(C(F)(F)F)cc1)c1ccccc1.Cl (stereo not shown) | 0.28 |
| COc1cc(N)c(Cl)cc1C(=O)NC1CCN(CCCOc2ccc(F)cc2)CC1OC.O (stereo not shown) | -0.1 |

Study 3
SMILES: CC(C)[C@H](CO)Nc1nc(Nc2cccc(Cl)c2)c2ncn(C(C)C)c2n1
Read-out: enzyme activity
Mode: inhibitor
Tested at: 0.5 µM
Reference: control
| target | remaining activity [%] |
| --- | --- |
| Aurora kinase A (AURKA, Homo sapiens, UniProt O14965) | 80.6 |
| ROCK2 (Homo sapiens, UniProt O75116) | 100 |
| GRK5 (Homo sapiens, UniProt P34947) | 101 |
| NEK9 (Homo sapiens, UniProt Q8TD19) | 93.1 |
| CAMK1G (Homo sapiens, UniProt Q96NX5) | 94.9 |
| BRSK1 (Homo sapiens, UniProt Q8TDC3) | 100 |
| DMPK (Homo sapiens, UniProt Q09013) | 108 |
| CDK7 (Homo sapiens, UniProt P50613) | 59.5 |
| MAP3K2 (Homo sapiens, UniProt Q9Y2U5) | 97.8 |
| MAPK10 (Homo sapiens, UniProt P53779) | 96.7 |
| PRKD1 (Homo sapiens, UniProt Q15139) | 96.9 |
| SLK (Homo sapiens, UniProt Q9H2G2) | 73.1 |
| HIPK3 (Homo sapiens, UniProt Q9H422) | 102 |
| CAMK1D (Homo sapiens, UniProt Q8IU85) | 103 |
| CSNK2A2 (Homo sapiens, UniProt P19784) | 93.2 |
| MAP3K8 (Homo sapiens, UniProt P41279) | 101 |
| ROS1 (Homo sapiens, UniProt P08922) | 88.1 |
| RET (Homo sapiens, UniProt P07949) | 81.4 |
| EGFR (Homo sapiens, UniProt P00533) | 94.2 |
| DYRK4 (Homo sapiens, UniProt Q9NR20) | 91.2 |
| NTRK3 (Homo sapiens, UniProt Q16288) | 15 |
| PTK2B (Homo sapiens, UniProt Q14289) | 66.5 |

Study 4
Structure (SMILES): CCC(=O)N1CCN(c2nc(OC[C@@H]3CCCN3C)nc3c2CCN(c2cccc4cccc(Cl)c24)C3)C[C@@H]1CC#N
Read-out: binding
Mode: competitor
Method: NanoBRET
Cell line: HEK293
KRAS Q61R: GTPase KRas (KRAS, Homo sapiens, UniProt P01116, Q61R)
| target | tested at | normalized BRET |
| --- | --- | --- |
| GTPase KRas (KRAS, Homo sapiens, UniProt P01116, Q61L) | 15.2 nM | 94% and 107% and 94.9% |
| GTPase KRas (KRAS, Homo sapiens, UniProt P01116, Q61H) | 3.7 µM | 30.3% and 26.7% |
| KRAS Q61R | 45.7 nM | 102% and 107% and 95.5% |
| KRAS Q61R | 412 nM | 102% and 105% and 93.8% |
| GTPase KRas (KRAS, Homo sapiens, UniProt P01116, G13D) | 3.7 µM | 28.3% and 23.3% and 24.8% |
